Assay results pooled from the literature.
Every numbered part comes from another study and shows a few of its results, in no order. Changes are numbered by the printed parent chain.

Series 1 — target: CCNA1, cyclin fold, Cln2 fusion (human); method: yeast growth competition, sequencing; matrix: yeast; notes: weak parent motif; reference: not given; reading: higher = stronger binding
Parent: ORC1 docking peptide (human); PRARKRLELGNLG; partner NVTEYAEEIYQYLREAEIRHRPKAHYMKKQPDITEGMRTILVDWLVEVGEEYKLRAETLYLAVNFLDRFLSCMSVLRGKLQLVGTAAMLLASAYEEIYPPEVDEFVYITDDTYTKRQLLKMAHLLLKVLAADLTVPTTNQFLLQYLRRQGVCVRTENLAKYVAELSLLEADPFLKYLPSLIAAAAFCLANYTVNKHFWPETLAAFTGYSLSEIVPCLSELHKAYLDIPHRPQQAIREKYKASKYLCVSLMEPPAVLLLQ
For `L12H`, “normalised enrichment score” read 0.662.
`R4C`: “normalised enrichment score” 0.136.
`E8Q` — result for “normalised enrichment score”: 0.443.
`A3Q` — result for “normalised enrichment score”: 0.706.
`L7G` — result for “normalised enrichment score”: 0.228.
For `E8V`, “normalised enrichment score” read 0.542.
Under “normalised enrichment score”, `L12P` is recorded as 0.581.
Under “normalised enrichment score”, `R4D` is recorded as 0.158.
`R6E` — result for “normalised enrichment score”: 0.175.

Series 2 — method: DHFR PCA, deep sequencing; matrix: yeast; with: (+)-ABA 2500 µM; reference: wild-type fitted maximum; reading: higher = stronger binding
Target: ABI1, truncated, D143A, DHFR fusion (Arabidopsis thaliana)
Notes: methotrexate growth selection, single substitutions
Parent: PYL1, truncated, DHFR fusion (Arabidopsis thaliana); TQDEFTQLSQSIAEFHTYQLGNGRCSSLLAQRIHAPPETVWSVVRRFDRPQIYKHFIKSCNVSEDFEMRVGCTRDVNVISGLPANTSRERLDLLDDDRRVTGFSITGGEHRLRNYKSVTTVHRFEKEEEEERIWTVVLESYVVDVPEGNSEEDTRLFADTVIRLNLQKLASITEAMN
For `E4G`, “relative binding score” read 97.1%.
For `T1L`, “relative binding score” read 98.4%.
For `T6W`, “relative binding score” read 99.3%.
For `P37Q`, “relative binding score” read 86.8%.
For `T73R`, “relative binding score” read 93.3%.
`I33Q` — result for “relative binding score”: 0.198%.
Under “relative binding score”, `G148Y` is recorded as 91.1%.
Under “relative binding score”, `L166I` is recorded as 77.2%.

Series 3 — method: protein-binding microarray; molecule type: double-stranded DNA, one strand shown; matrix: in vitro; tested at: not given; reading: higher = stronger binding
Target: Max-binding protein MNT, bHLH-zipper, MAX partner unstated (MNT, Homo sapiens, UniProt Q99583, residues 220-300)
Notes: k-mer, scored over probes, only values ≥0.25
Construct (chain): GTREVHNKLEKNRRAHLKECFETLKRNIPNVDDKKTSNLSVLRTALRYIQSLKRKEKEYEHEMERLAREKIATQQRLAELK
The E-score of `AATCCCCA` is reported as 0.276.
`CCGCGCAC` has an E-score of 0.258.
`ACGAGCAC` has an E-score of 0.269.
`ATGAGGGA` has an E-score of 0.268.
For `ACGTTTGC`, the E-score was 0.299.
For `CATGGACG`, the E-score was 0.279.
The E-score of `CGTGGCCA` is reported as 0.37.
The E-score of `ACAACATG` is reported as 0.329.
`GCATGGAA` has an E-score of 0.346.
`AAGCCACG` gave an E-score of 0.322.
With `ACGTGCGC` the E-score was 0.468.
For `AATGCATG`, the E-score was 0.324.
`CAACCCCA` has an E-score of 0.308.

Further values, each from its own experiment
`PhoQ, residues 284 288 289 292 302 303 TTSMTC` gave a fold induction of 11.7 (PhoP, residues 12 14 15 18 19 AGCRL (Escherichia coli, UniProt P23836); Sort-seq, measured: YFP reporter; E. coli; PhoQ-PhoP variant library, with: 10 µM Mg2+; reference: high Mg2+ state, higher = stronger signaling).

Excerpt of the above (series 2):
For `T6W`, “relative binding score” read 99.3%.
For `P37Q`, “relative binding score” read 86.8%.
For `T73R`, “relative binding score” read 93.3%.
`I33Q` — result for “relative binding score”: 0.198%.
